{"data": "Measured values of several laboratories", "note": "Each numbered part is a random draw from the data of one study; scales do not carry over between parts. Positions count from the first letter of the parent shown."}
{"data": "Set 1", "target": "Ras GTPase-activating protein-binding protein 1, full length (G3BP1, Homo sapiens, UniProt Q13283)", "technique": "RNA Bind-n-Seq", "molecule type": "RNA", "medium": "in vitro", "tested at": "200 nM", "notes": "whole 134-nt RNA, ends assumed", "added": "150 mM LiCl", "baseline": "input library", "reading": "higher = stronger binding", "each molecule": "7-deaza-guanosine replaces G", "constant ends, left off below": "GGGAGUUCUACAGUCCGACGAUC … UGGAAUUCUCGGGUGUCAAGG", "chain of UniProt Q13283 (whole entry, looked up)": "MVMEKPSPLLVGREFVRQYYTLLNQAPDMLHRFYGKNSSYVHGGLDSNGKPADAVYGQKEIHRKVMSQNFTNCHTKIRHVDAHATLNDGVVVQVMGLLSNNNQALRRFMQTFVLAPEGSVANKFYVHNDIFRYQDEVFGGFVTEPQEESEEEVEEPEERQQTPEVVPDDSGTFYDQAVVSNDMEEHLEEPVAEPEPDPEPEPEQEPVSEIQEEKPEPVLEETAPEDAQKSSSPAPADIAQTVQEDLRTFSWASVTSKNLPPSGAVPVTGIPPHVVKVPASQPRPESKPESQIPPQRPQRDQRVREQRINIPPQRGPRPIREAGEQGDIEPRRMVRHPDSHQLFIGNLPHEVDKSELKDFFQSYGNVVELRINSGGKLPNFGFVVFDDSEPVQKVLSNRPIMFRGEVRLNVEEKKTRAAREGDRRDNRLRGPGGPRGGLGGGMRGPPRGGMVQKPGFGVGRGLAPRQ"}
{"Oligonucleotide": "UCCUGUGCUACACAUCGUAUGUACCGAAUCGGGGUUUGGGGAAAAAAAGGGGAAAGGGGAAAGUAUUAUGUUACGCCGUUCGGAUCUGCA", "log2 enrichment": 0.0522}
{"Oligonucleotide": "UAACUUUAGAGGAGGAUCUGAUGGAUAUGGCAGUGGACGUGGAUUUGGGGAUGGCUAUAAUGGGUGUGGAGGAGGACCUGGAGGUGGCAA", "log2 enrichment": 0.132}
{"Oligonucleotide": "GCAGGAAGUAAAAACAAAUGGAAAUGCUUCGGAUAGUGGCAGAAAUGGGGGUUGCUAAGGAAAGGGUGGGAUGGGAGUGGGUAAAGAGUU", "log2 enrichment": 0.196}
{"Oligonucleotide": "CUCAAGUCCUGUGCUACACAUCGUAUGUACCGAAUCGGUUGGGGUUGGUUGGGGAAAGUAUUAUGUUACGCCGUUCGGAUCUGCACUUCC", "log2 enrichment": 0.0855}
{"Oligonucleotide": "ACCAUGCAGGAAAGCAUCUUUGGGAAGUGGGGCAAGGGGGGGAUAGGGAGGGGGGUAACACUUUGGGAACAGGUGGUCCCAGGUCGUUUC", "log2 enrichment": 0.035}
{"Oligonucleotide": "GUCCUGUGCUACACAUCGUAUGUACCGAAUCGGAAAAAGGAAAAAAAGGAAAAAAAGGAAAGUAUUAUGUUACGCCGUUCGGAUCUGCAC", "log2 enrichment": -0.613}
{"data": "Set 2", "target": "Prothrombin, mature alpha-thrombin (F2, Homo sapiens, UniProt P00734)", "technique": "aptamer microarray, sandwich", "molecule type": "DNA with 2'F-ANA", "medium": "in vitro", "tested at": "200 nM", "notes": "whole 15-mer aptamer, many near background", "added": "Cy3 exosite-II aptamer, 400 nM", "reading": "higher = stronger binding", "oligonucleotide": "GGTTGGTGTGGTTGG"}
{"Modification": "2'F-ANA at 1 3 6 9 13 14 15", "mean fluorescence intensity": "71.3 a.u."}
{"Modification": "2'F-ANA at 1 2 3 4 5 6 7 8 11 12 15", "mean fluorescence intensity": "91.1 a.u."}
{"Modification": "2'F-ANA at 1 3 5 6 7 13 14 15", "mean fluorescence intensity": "55 a.u."}
{"Modification": "2'F-ANA at 2 6 7 8 9 12 15", "mean fluorescence intensity": "674 a.u."}
{"Modification": "2'F-ANA at 3 6 7 8 10 11 12 13 15", "mean fluorescence intensity": "491 a.u."}
{"Modification": "2'F-ANA at 2 3 5 6 10 12 14", "mean fluorescence intensity": "47.6 a.u."}
{"Modification": "2'F-ANA at 1 2 3 4 5 7 8 9 12 15", "mean fluorescence intensity": "127 a.u."}
{"Modification": "2'F-ANA at 1 4 6 8 11 12 13 14", "mean fluorescence intensity": "67.4 a.u."}
{"Modification": "2'F-ANA at 2 3 7 12 14", "mean fluorescence intensity": "553 a.u."}
{"Modification": "2'F-ANA at 4 5 6 10 12 13 14", "mean fluorescence intensity": "58.2 a.u."}
{"Modification": "2'F-ANA at 2 5 6 7 11 12 15", "mean fluorescence intensity": "134 a.u."}
{"data": "Set 3", "target": "CCNB1, cyclin fold, Cln2 fusion (human)", "technique": "yeast growth competition, sequencing", "medium": "yeast", "notes": "weak parent motif", "baseline": "not given", "reading": "higher = stronger binding", "parent": "CDC25A docking peptide (human); PPHRRRLLFACSP"}
{"Variant": "P2F", "normalised enrichment score": 0.349}
{"Variant": "H3A", "normalised enrichment score": 0.119}
{"Variant": "C11R", "normalised enrichment score": -0.254}
{"Variant": "R6T", "normalised enrichment score": 0.569}
{"Variant": "R4N", "normalised enrichment score": 0.616}
{"Variant": "P13H", "normalised enrichment score": 0.911}
{"Variant": "P13A", "normalised enrichment score": 0.668}
{"data": "Single results of other studies"}
{"Molecule": "PhoQ, residues 284 288 289 292 302 303 AGGCYF", "target": "PhoP, residues 12 14 15 18 19 SEGLL (Escherichia coli, UniProt P23836)", "test": "Sort-seq, item: YFP reporter", "system": "E. coli", "conditions": "PhoQ-PhoP variant library, added: 10 µM Mg2+", "how to read": "baseline: high Mg2+ state, higher = stronger signaling", "measurement": "fold induction", "result": 12.5}
{"note": "Some of these lines once more (set 2):"}
{"Modification": "2'F-ANA at 1 2 3 4 5 6 7 8 11 12 15", "mean fluorescence intensity": "91.1 a.u."}
{"Modification": "2'F-ANA at 4 5 6 10 12 13 14", "mean fluorescence intensity": "58.2 a.u."}
{"Modification": "2'F-ANA at 2 3 5 6 10 12 14", "mean fluorescence intensity": "47.6 a.u."}
